Measurements from different studies.
Each line is one published result; not all experiments were run side by side. Values joined by “and” are separate records of one study, mostly repeats; a detail may differ.
CDK4: Cyclin-dependent kinase 4 (CDK4, Homo sapiens, UniProt P11802)
CDK4 with cyclin D3: Cyclin-dependent kinase 4, with cyclin D3 (CDK4, Homo sapiens, UniProt P11802)
CDK4 with cyclin D1: Cyclin-dependent kinase 4, with cyclin D1 (CDK4, Homo sapiens, UniProt P11802)
CDK4 with cyclin D: Cyclin-dependent kinase 4, with cyclin D (CDK4, Homo sapiens, UniProt P11802)

CS(=O)(=O)Nc1cccc(-c2csc3cnc(Nc4ccc(N5CCN(CCCCCOc6cccc7c6C(=O)N(C6CCC(=O)NC6=O)C7=O)CC5)cc4)nc23)c1 (centres unmarked) — inhibition (CDK4; target engagement in cells; MOLT-4; 1 µM): > 50%
NC(=O)[C@@H](O)C[C@H]1CCc2sc3ncnc(O[C@H]4CC[C@H](N5CCOCC5)CC4)c3c21 — inhibition (CDK4 with cyclin D3; enzyme activity, inhibitor; 10 µM): 10%
COc1cc(Nc2nc(C)cc(-c3cnn4nc(OC)ccc34)n2)cc(C(F)(F)F)c1 — remaining activity (CDK4; inhibitor; 1 µM; baseline: control): 70%
Nc1ncc(-c2cc(-c3cnn(CC(F)(F)F)c3)ncc2F)nc1C(=O)NC1CNCC(F)C1 (centres unmarked) — remaining activity (Cyclin-dependent kinase 4, with cyclin D2 (CDK4, Homo sapiens, UniProt P11802); enzyme activity; 1 µM; baseline: DMSO control): 96.8%
CCn1cc(C(=O)O)c(=O)c2c(N)c(F)c(NC3CCCCC3)cc21 — inhibition (CDK4 with cyclin D1; kinase activity; 0.1 µM, with: ATP at Km): 12.2%
C=CC(=O)Nc1cccc(-c2cnc3[nH]cc(C(=O)NC(C)(C)C)c3n2)c1 — inhibition (CDK4 with cyclin D; kinase activity, inhibitor, kinase panel; 0.1 µM): 2% and -1%
CN1C[C@@H](c2c[nH]c3cc(Br)ccc23)NC[C@@H]1c1c[nH]c2cc(Br)ccc12 — remaining activity (CDK4 with cyclin D1; enzyme activity, inhibitor; 10 µM): 99%
C=CC(=O)Nc1cc(-c2nn(C3CCN(CCNC(=O)[C@H](C)CCC45CC6CC(CC(C6)C4)C5)CC3)c3ncnc(N)c23)ccc1Oc1ccccc1 — inhibition (CDK4; inhibitor, KiNativ profiling; biochemical; 2 µM): 17.4%
Cc1cccc(O[C@H]2CCC[C@@H](C(C)CNCc3ccncc3)C2)c1 (relative stereo) — inhibition (CDK4 with cyclin D; kinome profiling; 1 µM): 2%
CNC(=O)C[C@H](Cc1ccc(C#N)cc1)NC(=O)c1cc(-c2ccc(CN[C@H](C)c3ccc(C)cc3)o2)ccc1Cl — activity vs control (CDK4 with cyclin D3; enzyme activity, inhibitor; 1 µM): 101%
COCC12C(=O)NC3C4(C(OC)CC1O)C1CC5(O)C(OC)C(O)C(OC(C)=O)(C1C5OC(=O)c1ccccc1)C3(O)C(OC)C24 (centres unmarked) — remaining activity (CDK4 with cyclin D3; kinase activity, inhibitor, ProQinase kinase profiling; 25 µM; baseline: control): 109% and 99%
C=CC(=O)N1Cc2nc(-c3cc(-c4cc(Cl)cnc4Cl)c(F)cc3F)n(-c3ccncn3)c2C1 — inhibition (CDK4 with cyclin D1; cell-free assay, inhibitor; 1 µM): 0%
NC(=O)C[C@H]1CCc2sc3ncnc(O[C@H]4CC[C@H](N5CCOCC5)CC4)c3c21 — inhibition (CDK4 with cyclin D1; enzyme activity, inhibitor; 10 µM): 5%
O=C(Cc1ccc(OCc2ccccc2)cc1)NC1(C(=O)O)CCN(C(=O)c2ccc(-c3cccc(Cl)c3)cc2)CC1 — activity vs control (CDK4 with cyclin D3; enzyme activity, inhibitor; 10 µM): 94%

Excerpt of the above:
CS(=O)(=O)Nc1cccc(-c2csc3cnc(Nc4ccc(N5CCN(CCCCCOc6cccc7c6C(=O)N(C6CCC(=O)NC6=O)C7=O)CC5)cc4)nc23)c1 (centres unmarked) — inhibition (CDK4; target engagement in cells; MOLT-4; 1 µM): > 50%
NC(=O)[C@@H](O)C[C@H]1CCc2sc3ncnc(O[C@H]4CC[C@H](N5CCOCC5)CC4)c3c21 — inhibition (CDK4 with cyclin D3; enzyme activity, inhibitor; 10 µM): 10%
